Published values collected from several papers.
Several values in a cell are separate wells, animals, samples, runs or records.
PRKDC: DNA-dependent protein kinase catalytic subunit (PRKDC, Homo sapiens, UniProt P78527)
UniProt P28482, sequence (whole entry, looked up): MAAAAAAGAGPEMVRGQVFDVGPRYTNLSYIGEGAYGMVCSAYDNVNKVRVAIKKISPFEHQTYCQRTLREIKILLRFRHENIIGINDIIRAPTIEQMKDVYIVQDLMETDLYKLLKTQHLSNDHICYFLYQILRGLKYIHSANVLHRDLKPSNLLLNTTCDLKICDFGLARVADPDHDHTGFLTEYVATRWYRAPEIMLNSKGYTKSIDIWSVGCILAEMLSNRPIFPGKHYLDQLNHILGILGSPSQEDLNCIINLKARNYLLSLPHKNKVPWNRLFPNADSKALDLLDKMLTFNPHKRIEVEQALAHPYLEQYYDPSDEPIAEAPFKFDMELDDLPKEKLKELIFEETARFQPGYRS
UniProt P78527, sequence (whole entry, looked up): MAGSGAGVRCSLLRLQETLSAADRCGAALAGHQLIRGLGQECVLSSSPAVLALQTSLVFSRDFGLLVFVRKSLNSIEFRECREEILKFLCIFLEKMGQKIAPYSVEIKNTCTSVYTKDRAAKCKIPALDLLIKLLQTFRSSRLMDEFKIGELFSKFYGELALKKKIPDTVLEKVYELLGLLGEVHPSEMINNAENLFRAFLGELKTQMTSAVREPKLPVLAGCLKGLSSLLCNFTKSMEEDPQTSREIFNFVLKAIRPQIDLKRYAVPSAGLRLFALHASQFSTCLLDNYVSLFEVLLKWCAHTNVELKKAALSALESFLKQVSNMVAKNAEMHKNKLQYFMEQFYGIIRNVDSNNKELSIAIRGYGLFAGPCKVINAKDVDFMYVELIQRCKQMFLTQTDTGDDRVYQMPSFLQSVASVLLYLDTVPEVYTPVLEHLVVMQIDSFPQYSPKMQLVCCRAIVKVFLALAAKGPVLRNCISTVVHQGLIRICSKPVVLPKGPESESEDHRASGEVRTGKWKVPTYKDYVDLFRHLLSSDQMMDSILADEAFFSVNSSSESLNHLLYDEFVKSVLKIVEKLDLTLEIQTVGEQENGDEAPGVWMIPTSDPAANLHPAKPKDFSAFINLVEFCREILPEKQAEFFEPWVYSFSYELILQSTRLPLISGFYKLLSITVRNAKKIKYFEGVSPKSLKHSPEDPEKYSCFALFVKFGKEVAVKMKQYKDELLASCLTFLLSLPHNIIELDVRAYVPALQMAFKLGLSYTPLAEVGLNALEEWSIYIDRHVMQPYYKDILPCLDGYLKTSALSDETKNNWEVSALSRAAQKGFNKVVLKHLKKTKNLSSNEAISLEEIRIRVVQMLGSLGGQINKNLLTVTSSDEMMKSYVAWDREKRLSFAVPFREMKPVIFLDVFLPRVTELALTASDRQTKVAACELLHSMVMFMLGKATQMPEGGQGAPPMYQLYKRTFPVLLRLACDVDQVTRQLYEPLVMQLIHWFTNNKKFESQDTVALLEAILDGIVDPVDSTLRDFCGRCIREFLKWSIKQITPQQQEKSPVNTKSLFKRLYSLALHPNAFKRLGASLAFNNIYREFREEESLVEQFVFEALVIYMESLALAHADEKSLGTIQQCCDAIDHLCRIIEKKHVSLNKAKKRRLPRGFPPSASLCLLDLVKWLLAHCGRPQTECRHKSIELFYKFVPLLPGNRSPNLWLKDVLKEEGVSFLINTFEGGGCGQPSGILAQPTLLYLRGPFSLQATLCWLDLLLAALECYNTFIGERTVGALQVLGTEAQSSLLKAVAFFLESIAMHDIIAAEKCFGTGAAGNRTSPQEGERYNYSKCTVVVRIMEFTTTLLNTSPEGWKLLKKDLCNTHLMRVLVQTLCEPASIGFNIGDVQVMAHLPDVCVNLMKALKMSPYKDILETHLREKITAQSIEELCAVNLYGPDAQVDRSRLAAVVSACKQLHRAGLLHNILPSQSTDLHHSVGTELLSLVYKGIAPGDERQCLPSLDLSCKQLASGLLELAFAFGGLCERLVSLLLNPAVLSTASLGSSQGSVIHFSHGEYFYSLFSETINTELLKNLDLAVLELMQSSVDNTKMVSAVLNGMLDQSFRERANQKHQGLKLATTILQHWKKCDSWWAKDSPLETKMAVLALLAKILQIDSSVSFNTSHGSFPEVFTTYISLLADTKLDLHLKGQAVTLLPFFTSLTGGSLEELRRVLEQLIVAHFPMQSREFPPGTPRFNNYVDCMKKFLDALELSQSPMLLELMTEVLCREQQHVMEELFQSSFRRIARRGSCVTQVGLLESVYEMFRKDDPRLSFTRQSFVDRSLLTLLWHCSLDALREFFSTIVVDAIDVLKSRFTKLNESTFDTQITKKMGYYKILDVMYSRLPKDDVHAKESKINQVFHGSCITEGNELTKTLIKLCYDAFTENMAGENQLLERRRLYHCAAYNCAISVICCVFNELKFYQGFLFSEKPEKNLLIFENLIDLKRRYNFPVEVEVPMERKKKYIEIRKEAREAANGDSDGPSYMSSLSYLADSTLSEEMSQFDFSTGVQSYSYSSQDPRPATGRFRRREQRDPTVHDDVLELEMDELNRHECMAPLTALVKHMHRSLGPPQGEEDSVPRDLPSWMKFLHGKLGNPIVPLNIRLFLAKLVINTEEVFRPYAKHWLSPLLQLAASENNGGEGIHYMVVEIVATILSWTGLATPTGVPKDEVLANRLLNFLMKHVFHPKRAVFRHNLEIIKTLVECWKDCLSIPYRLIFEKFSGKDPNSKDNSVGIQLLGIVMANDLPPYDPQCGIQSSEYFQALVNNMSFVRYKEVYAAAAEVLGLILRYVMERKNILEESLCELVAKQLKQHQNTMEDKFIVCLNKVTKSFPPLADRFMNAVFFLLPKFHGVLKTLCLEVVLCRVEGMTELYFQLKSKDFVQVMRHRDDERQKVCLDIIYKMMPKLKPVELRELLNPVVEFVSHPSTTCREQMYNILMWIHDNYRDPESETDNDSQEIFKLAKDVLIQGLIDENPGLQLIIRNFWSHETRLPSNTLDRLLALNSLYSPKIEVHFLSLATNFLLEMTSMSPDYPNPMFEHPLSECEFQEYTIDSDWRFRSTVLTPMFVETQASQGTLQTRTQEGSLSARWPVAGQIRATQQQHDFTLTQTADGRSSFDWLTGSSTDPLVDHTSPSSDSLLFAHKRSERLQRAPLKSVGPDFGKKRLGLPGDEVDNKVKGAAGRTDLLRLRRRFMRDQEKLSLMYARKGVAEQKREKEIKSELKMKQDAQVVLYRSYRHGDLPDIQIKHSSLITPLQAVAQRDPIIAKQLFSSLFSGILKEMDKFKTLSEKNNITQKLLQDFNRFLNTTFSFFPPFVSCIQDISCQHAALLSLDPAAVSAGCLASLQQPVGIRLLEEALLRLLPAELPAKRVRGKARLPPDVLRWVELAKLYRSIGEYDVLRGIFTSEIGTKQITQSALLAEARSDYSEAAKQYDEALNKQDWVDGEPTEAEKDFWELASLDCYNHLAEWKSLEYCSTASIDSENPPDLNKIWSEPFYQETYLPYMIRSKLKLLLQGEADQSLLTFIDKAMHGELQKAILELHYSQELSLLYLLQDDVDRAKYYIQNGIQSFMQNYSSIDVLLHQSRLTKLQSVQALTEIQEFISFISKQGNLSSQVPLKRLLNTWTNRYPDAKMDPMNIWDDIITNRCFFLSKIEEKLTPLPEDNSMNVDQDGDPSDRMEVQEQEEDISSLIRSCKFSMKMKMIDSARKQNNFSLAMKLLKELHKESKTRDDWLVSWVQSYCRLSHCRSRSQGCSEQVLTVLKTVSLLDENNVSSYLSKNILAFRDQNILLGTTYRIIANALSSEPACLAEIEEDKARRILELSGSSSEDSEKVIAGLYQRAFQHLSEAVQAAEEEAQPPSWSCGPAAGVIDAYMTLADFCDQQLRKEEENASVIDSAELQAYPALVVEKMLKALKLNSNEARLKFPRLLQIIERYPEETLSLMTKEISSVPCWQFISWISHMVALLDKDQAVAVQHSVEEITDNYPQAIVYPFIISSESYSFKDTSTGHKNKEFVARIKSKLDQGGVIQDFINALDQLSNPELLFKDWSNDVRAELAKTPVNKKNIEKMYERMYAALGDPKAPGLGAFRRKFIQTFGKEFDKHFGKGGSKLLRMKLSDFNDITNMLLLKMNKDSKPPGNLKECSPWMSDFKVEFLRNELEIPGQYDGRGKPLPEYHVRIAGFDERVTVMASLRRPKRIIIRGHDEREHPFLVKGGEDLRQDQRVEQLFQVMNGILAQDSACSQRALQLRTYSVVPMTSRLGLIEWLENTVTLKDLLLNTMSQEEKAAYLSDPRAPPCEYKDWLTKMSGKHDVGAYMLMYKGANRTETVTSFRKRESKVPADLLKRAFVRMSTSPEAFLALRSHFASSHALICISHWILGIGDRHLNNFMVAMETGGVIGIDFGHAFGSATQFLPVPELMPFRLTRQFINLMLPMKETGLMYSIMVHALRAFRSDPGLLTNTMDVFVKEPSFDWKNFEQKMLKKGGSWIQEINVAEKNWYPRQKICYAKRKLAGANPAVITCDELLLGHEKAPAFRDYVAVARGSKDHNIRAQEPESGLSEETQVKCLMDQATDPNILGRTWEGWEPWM
UniProt O15379, sequence (whole entry, looked up): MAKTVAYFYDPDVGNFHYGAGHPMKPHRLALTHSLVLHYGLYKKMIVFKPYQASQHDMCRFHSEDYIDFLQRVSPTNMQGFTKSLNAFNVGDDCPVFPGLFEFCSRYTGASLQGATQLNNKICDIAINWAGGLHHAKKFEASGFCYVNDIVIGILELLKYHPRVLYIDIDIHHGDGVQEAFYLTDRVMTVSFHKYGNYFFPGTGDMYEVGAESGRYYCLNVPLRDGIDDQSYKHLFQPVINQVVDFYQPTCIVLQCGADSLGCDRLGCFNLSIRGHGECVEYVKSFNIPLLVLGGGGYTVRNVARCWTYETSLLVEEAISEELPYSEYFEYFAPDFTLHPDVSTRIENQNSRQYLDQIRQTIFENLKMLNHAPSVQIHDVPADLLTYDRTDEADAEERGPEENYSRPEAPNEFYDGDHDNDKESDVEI

For `Cc1ncsc1-c1ccc(C(C)NC(=O)C2CC(O)CN2C(=O)C(NC(=O)CCCCCCCCCCN2CCCC(Nc3ncc(Cl)c(Nc4ccccc4S(=O)(=O)C(C)C)n3)C2)C(C)(C)C)cc1` (stereo not shown), “log2 fold change” read -1.31 (22Rv1; RNA-seq, item: WDCP mRNA; concentration not given; relative to: DMSO).
The remaining activity of `COC(=O)[C@@]1(C)C=C(C(=O)Nc2cccc(C(=O)Nc3ccc(Nc4nccc(-c5cccnc5)n4)c(C)c3)c2)C(=O)CC1` is reported as 0.976 and 0.977 and 0.774 (Mitogen-activated protein kinase 1 (MAPK1, Homo sapiens, UniProt P28482); enzyme activity, inhibitor; 14.81 µM, unit not given; relative to: vehicle).
The MRT(0-last) of `C=C(NC(=O)c1csc(-c2nc3c(cc2O)-c2nc(cs2)C(=O)NC(C(C)O)C(=O)NC(=C(C)OC)c2nc(cs2)C(=O)NC2c4nc(cs4)C(=O)NC(COC(=O)c4c5c6c(cccc6n4O)COC(=O)C(OC4CC(C)(O)C(N(C)C)C(C)O4)C2OC5)c2nc-3cs2)n1)C(N)=O` (stereo not shown) is reported as 1.64 h (Sprague-Dawley rat, female, plasma; intravenous infusion, 6 mg/kg, multiple doses, day 7).
With `CN1C[C@@H](c2c[nH]c3cc(Br)ccc23)NC[C@@H]1c1c[nH]c2cc(Br)ccc12` the remaining activity was 97% (Cyclin-dependent kinase 2, with cyclin A2 (CDK2, Homo sapiens, UniProt P24941); enzyme activity, inhibitor; 10 µM).
With `CN(Cc1cc(C2CC2)on1)C(=O)c1cccc(-c2ccc3c(c2)CCO3)c1` the remaining activity was 78.5% and 83.4% (Acetyl-CoA synthetase (Cryptococcus neoformans, UniProt J9VFT1); enzyme activity, inhibitor, coupled pyrophosphate; 977 nM).
`COC(=O)[C@]1(C(C)C)C=C(C(=O)Nc2cccc(C(=O)Nc3ccc(Nc4nccc(-c5cccnc5)n4)c(C)c3)c2)C(=O)CC1` gave a remaining activity of 0.256 (Mitogen-activated protein kinase 8 (MAPK8, Homo sapiens, UniProt P45983); kinase activity, inhibitor; 4.938 µM, unit not given, with: 10 mM glutathione; relative to: no inhibitor).
With `CC(=O)N1c2ccc(-c3ccc(CNC(=O)c4cn5cc(-c6cnc(N)nc6)nc(N6CCOCC6)c5n4)cc3)cc2CC[C@@H]1C` the remaining activity was 13% (PRKDC; enzyme activity, inhibitor, radiometric; 10 µM).
`Cc1ccc(-c2c(/C=C(\C#N)C(=O)NC(C)C)n(CCCO)c3ncnc(N)c23)cc1` gave a remaining activity of 100% (Tyrosine-protein kinase ABL1 (ABL1, Homo sapiens, UniProt P00519, Q252H); enzyme activity, inhibitor; 1 µM).
`CNS(=O)(=O)Nc1nccc(Cc2c(C)c3ccc(Oc4ncccc4F)cc3oc2=O)c1F` gave an IC50 of > 1 µM (NCI-H524; cell viability; 7 days).
`O=C1c2c(O)cc(O)cc2OC(c2ccc(O)c(O)c2)C1O` (stereo not shown) has a remaining activity of 52.8% (Tyrosine--tRNA ligase, cytoplasmic (YARS1, Homo sapiens, UniProt P54577); enzyme activity, inhibitor; 100 µM).
`COC1CN([C@H]2CC[C@H]([C@@]3(C)Oc4c(Cl)cc(C(=O)NCc5c(SC)cc(C)[nH]c5=O)c(C)c4O3)CC2)C1`: “log2 fold change” 0.408 (RNA-seq, item: WNK2 mouse homolog; mouse, HT-1376 xenograft, whole blood; dose not given; relative to: vehicle).
With `CC(C)[C@@H]1NC(=O)[C@H](Cc2ccccc2)NC(=O)CSC[C@@H](C(N)=O)NC(=O)[C@H](CCC(=O)O)NC(=O)[C@H](CO)NC(=O)[C@H](Cc2c[nH]c3cccc(Cl)c23)NC(=O)[C@H](C2CCCCC2)NC(=O)[C@H](C(C)C)NC(=O)[C@H](Cc2ccc(O)cc2)NC(=O)[C@H](CC(=O)O)NC(=O)[C@H](Cc2c[nH]c3ccccc23)NC(=O)[C@H](Cc2ccc(N)nc2)NC(=O)[C@H](Cc2c[nH]c3ccc(Cl)cc23)NC(=O)[C@H](CCC(=O)O)NC1=O` the remaining activity was 91.9% (Interleukin-1 receptor-like 2 (IL1RL2, Homo sapiens, UniProt Q9HB29); reporter gene (SEAP), inhibitor, HEK-Blue IL-36R reporter; HEK-Blue IL-36R cells; 1.23 µM, 6 h, with: IL-36β 100 ng/mL).
For `COc1ccccc1-c1ccncc1C(=O)Nc1nnc(OCc2ccc(Cl)cc2)s1`, the remaining activity was 96% (DNA polymerase theta, helicase domain (POLQ, Homo sapiens, UniProt O75417); ATPase activity, ADP-Glo; 0.002 µM, with: ATP 600 µM).
`Cc1cccc(-c2ccc3nc(NC(=O)C4CCCO4)nn3c2)c1` (stereo not shown) gave a remaining activity of 72% (phosphorylase kinase; enzyme activity; 10 µM).
`Cc1nn(-c2cccc(N)c2)c(=O)c2cnc(Nc3ccc(N4CCNCC4)cc3)nc12` has an IC50 of > 10 µM (PRKDC; enzyme activity, inhibitor).
For `N#Cc1cnc2sc(C(=O)O)cc2c1N1CCc2[nH]nc(C(=O)N[C@@H](CC(=O)NCCOCCN3CCOCC3)c3cccc(Br)c3)c2C1`, the remaining activity was 109% (Interleukin-1 receptor type 1 (IL1R1, Homo sapiens, UniProt P14778); IL-8 release, antagonist; A-431; 100000 µM, 18 h, with: IL-1β 5 ng/mL; relative to: untreated).
`CN1CCCNC(=O)c2cccc(c2)C(=O)NCCCN(C)CCCNc2cccc3c2C(=O)c2cccc(c2C3=O)NCCC1`: “log2 fold change” 0.639 (SAS; RNA-Seq, item: TGDS mRNA; 1 µM, 6 h; relative to: untreated cells).
With `COC(=O)c1ccc2c(c1)nc(NC(=O)c1ccccc1)n2CCCc1ccccc1` the remaining activity was 83% (Histone deacetylase 3 (HDAC3, Homo sapiens, UniProt O15379); enzyme activity, inhibitor; 10 µM).
With `C[C@](C(=O)NC1CCOCC1)(c1cncnc1)N(C(=O)[C@H](F)Cl)c1ccc(OC(F)(F)Cl)cc1` the remaining activity was 103% (Caspase-10 (CASP10, Homo sapiens, UniProt Q92851); enzyme activity, inhibitor; 10 µM).
